{"data": "Assay results collected from several papers", "note": "Numbered parts are unrelated; each lists some results of a single study. Positions count from the first letter of the parent shown.", "UniProt Q9ZTX9, sequence (whole entry, looked up)": "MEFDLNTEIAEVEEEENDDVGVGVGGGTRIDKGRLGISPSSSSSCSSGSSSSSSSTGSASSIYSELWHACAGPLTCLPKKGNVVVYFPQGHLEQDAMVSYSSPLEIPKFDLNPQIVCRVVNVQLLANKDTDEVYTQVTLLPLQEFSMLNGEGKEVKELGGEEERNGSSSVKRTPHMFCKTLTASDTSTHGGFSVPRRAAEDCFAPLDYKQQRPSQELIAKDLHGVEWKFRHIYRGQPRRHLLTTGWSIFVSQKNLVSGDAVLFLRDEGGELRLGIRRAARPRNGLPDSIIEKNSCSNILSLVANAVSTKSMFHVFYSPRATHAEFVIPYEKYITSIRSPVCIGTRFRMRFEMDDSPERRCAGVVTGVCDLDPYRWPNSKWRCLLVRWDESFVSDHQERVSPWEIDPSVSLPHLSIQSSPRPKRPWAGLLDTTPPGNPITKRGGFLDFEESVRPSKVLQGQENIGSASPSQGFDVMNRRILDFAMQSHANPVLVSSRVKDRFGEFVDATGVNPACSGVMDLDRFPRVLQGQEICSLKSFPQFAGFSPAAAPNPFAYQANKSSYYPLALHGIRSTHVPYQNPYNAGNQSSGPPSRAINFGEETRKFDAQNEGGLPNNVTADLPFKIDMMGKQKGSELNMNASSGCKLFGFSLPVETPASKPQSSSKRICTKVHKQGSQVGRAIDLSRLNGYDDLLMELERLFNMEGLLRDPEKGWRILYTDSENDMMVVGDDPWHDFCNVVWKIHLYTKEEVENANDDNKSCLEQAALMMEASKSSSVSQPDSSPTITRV", "UniProt P49841, sequence (whole entry, looked up)": "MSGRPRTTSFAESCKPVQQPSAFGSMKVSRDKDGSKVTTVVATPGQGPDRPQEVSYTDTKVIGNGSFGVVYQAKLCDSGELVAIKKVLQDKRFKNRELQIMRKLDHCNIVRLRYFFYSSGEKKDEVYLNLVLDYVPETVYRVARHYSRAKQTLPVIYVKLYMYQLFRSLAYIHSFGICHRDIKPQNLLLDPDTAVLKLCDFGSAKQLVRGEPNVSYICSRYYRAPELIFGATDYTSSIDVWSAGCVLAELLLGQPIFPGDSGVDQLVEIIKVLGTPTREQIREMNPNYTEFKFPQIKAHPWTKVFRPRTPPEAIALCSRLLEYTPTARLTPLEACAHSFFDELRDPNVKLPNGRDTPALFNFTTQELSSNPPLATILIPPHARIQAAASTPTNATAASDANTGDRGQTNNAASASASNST", "UniProt Q9ZTX8, sequence (whole entry, looked up)": "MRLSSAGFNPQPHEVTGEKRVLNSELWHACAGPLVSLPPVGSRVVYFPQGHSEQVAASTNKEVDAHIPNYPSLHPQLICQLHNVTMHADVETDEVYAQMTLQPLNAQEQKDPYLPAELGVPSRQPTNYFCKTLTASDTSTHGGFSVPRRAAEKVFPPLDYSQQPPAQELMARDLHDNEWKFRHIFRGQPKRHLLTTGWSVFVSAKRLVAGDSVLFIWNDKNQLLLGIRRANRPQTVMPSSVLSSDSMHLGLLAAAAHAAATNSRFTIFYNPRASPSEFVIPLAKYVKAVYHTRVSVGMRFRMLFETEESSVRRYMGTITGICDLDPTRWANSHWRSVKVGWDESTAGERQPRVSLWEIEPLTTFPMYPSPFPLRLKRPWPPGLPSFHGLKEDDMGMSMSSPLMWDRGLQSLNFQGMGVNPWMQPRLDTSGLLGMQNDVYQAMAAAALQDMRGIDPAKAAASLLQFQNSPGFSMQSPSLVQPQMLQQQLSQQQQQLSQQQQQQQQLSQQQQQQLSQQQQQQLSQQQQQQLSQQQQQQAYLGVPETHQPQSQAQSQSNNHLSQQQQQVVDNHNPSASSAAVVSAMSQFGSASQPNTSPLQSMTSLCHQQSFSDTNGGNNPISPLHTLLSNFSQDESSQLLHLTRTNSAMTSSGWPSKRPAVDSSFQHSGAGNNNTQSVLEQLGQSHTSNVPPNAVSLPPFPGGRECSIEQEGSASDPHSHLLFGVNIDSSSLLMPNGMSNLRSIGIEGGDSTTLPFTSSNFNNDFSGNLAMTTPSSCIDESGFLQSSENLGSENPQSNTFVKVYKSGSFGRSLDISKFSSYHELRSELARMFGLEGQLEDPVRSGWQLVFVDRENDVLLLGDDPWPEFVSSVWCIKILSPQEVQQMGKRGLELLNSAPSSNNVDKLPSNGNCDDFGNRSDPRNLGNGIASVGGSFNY", "UniProt Q9FGV1, sequence (whole entry, looked up)": "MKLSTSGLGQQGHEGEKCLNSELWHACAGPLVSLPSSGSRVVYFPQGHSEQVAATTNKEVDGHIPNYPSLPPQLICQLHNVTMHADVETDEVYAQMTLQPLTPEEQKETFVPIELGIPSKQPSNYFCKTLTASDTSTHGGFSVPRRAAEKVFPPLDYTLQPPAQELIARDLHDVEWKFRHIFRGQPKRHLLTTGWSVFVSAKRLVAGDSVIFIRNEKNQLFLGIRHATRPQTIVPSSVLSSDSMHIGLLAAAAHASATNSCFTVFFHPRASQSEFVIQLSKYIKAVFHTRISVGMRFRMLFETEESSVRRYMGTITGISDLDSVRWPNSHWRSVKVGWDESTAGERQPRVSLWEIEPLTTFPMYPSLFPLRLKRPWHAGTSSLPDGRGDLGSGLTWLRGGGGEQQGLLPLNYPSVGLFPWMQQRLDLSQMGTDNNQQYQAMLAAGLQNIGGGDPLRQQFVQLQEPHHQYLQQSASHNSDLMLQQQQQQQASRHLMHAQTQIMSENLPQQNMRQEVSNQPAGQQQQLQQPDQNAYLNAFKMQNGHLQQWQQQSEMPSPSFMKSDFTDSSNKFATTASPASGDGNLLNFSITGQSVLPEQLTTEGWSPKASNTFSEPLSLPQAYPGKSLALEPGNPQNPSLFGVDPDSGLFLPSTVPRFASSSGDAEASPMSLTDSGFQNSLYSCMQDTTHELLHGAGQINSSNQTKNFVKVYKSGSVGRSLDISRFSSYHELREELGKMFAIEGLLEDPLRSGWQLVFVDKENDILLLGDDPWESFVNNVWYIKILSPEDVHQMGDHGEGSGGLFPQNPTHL", "UniProt Q38824, sequence (whole entry, looked up)": "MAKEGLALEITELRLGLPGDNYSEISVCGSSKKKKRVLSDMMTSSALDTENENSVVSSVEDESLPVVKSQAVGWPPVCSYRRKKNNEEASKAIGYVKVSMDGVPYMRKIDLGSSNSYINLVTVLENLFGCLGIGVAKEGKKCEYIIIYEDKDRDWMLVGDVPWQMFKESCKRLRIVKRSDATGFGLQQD"}
{"data": "Set 1", "Molecule": "B1 (IAA4)", "technique": "two-hybrid", "reference": "out of 4 tests", "reading": "higher = firmer interaction", "B1": "IAA4 (Arabidopsis thaliana, UniProt P33077); chain MEKVDVYDELVNLKATELRLGLPGTEETVSCGKSNKRVLPEATEKEIESTGKTETASPPKAQIVGWPPVRSYRKNNVQTKKSESEGQGNYVKVSMDGAPYLRKIDLTMYKQYPELMKSLENMFKFSVGEYFEREGYKGSDFVPTYEDKDGDWMLVGDVPWEMFVSSCKRLRIMKGSEVKGLGCGGL"}
{"partner": "ARF4 660-788 (Arabidopsis thaliana, UniProt Q9ZTX9)", "positive tests": 0}
{"partner": "ARF8 699-811 (Arabidopsis thaliana, UniProt Q9FGV1)", "positive tests": 4}
{"partner": "IAA6 (Arabidopsis thaliana, UniProt Q38824)", "positive tests": 0}
{"partner": "ARF6 790-935 (Arabidopsis thaliana, UniProt Q9ZTX8)", "positive tests": 3}
{"data": "Set 2", "target": "NFE2L2, bZIP domain (human)", "technique": "DHFR protein complementation", "medium": "yeast", "notes": "single substitutions, most at no-binding floor", "reference": "wild-type JUN-FOS pair", "reading": "higher = stronger binding", "parent": "JUN, bZIP domain (human); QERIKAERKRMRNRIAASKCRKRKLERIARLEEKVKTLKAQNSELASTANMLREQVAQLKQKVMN; partner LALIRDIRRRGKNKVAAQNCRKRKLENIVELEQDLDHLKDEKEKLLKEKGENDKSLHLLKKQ"}
{"Substitution": "A49T", "binding fitness": "-1.54 natural log"}
{"Substitution": "A49F", "binding fitness": "-1.32 natural log"}
{"Substitution": "S43K", "binding fitness": "-1.58 natural log"}
{"Substitution": "T48N", "binding fitness": "-1.42 natural log"}
{"Substitution": "R30E", "binding fitness": "-1.36 natural log"}
{"Substitution": "V56N", "binding fitness": "-1.47 natural log"}
{"Substitution": "E54F", "binding fitness": "-1.44 natural log"}
{"Substitution": "V35S", "binding fitness": "-1.5 natural log"}
{"data": "Set 3", "target": "RNA binding protein fox-1 homolog 2, RRM domain, GST-SBP tag (RBFOX2, Homo sapiens, UniProt O43251-10, residues 100-194)", "technique": "RNA Bind-n-Seq", "form": "RNA", "medium": "in vitro", "concentration": "365 nM", "notes": "natural RNA segment, single round, ends assumed", "reference": "no-protein control", "reading": "higher = stronger binding", "all sequences stand within": "GGGAGUUCUACAGUCCGACGAUC … UGGAAUUCUCGGGUGCCAA", "Construct (chain)": "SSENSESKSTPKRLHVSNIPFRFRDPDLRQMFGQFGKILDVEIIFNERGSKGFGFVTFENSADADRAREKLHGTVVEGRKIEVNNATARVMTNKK"}
{"Sequence": "AACUUGUUUGCCAACCAAUAAACAACUGAUUGAGAUUUAGAAGAUAUUGUAUUGAUGUAUGUACUAUAUGAUUAAUCAGUCUUUUUAUUUUUCUCGCCUUUCUUUCUUUC", "RBNS enrichment (R)": 0.922}
{"Sequence": "UAUGCAAGCAAACACACUCUCACCUCCUCUCCCAGCCUCCCGGAGCUCUGAGCACGCCCCACGCAUGGUGCAGGAGGGACUGGACAGAUCUGAGGAAGGCCGUAAAAUGG", "RBNS enrichment (R)": 6.56}
{"Sequence": "UUAAUGUUUAUCCAGCUGCCGUAGUUUGAAACAUUCUGGGCUGGGAGAAGAGGGACCCCGGGGUUUCUAAUUUCAACCCCAAAUGACAUGUUUAUUUGCACCUGAUGCUC", "RBNS enrichment (R)": 1.63}
{"Sequence": "UGGGUCUUUACACCUCUGUGAAGUAGAGAAUUUUGGCAAUGAACUGUUUAACUUGGCCAAUCUAGGCCAUCAACCUAGAUAACUUAGUCCUUUUCAUGUAAAUUUUUGUG", "RBNS enrichment (R)": 0.263}
{"Sequence": "GAUGACAGAAAGCUUAUGCUGUCUACCACUGAACAGUGAUGGAGAUGGUGCUAAGUUUUUACAGUUGUCUUAGCCCCAGUGGUUCUCAAGGUGGGGCUCCUGGCCCAGCA", "RBNS enrichment (R)": 2.05}
{"Sequence": "GCGACGUUUAUUUCAUCUCUUGUUUACGAUUUCACUAGGACUCAGAAACGAGAUCGGGAAGCAGAAAUAUAGUGCAAUAGUGCAACAUCUCUGAAUCCUUUUAAUCUAGA", "RBNS enrichment (R)": 0.291}
{"Sequence": "GCAGGGGCAAGUGUACAAUGGGGCCUAGUCCCCAGCAGGCGGCUGGGAGGCCGCCACUGAGCAUCUCUAUUUGUCAUUCCUUUAGCUAUUUAGGGACCAAAGGACCAAAC", "RBNS enrichment (R)": 0.266}
{"Sequence": "CAAACCCCAUACUCUUAGAAUUCAUUAUAUUAUGGUGAUAUCCGAACCUAGUGAAUGGUAUGCUUGGGUGUUUUCCAUUGAGAGUGGAUGGACCUCUUUAUAAAGUUGGU", "RBNS enrichment (R)": 0.534}
{"data": "Single results of other studies"}
{"SMILES": "O=C1Nc2ccc(Br)cc2/C1=C/c1cc2c([nH]1)CCCC2", "target": "Glycogen synthase kinase-3 beta (GSK3B, Homo sapiens, UniProt P49841)", "test": "enzyme activity, inhibitor", "setting": "0.5 µM", "scale": "reference: control", "measurement": "remaining activity", "result": "94.1%"}
{"note": "For quick reference, copied from above (set 1):"}
{"partner": "ARF8 699-811 (Arabidopsis thaliana, UniProt Q9FGV1)", "positive tests": 4}
